Assay results from different studies.
WT1: WT1 323-438 (Homo sapiens, UniProt P19544)
Sequence of UniProt P19544 (whole entry, looked up): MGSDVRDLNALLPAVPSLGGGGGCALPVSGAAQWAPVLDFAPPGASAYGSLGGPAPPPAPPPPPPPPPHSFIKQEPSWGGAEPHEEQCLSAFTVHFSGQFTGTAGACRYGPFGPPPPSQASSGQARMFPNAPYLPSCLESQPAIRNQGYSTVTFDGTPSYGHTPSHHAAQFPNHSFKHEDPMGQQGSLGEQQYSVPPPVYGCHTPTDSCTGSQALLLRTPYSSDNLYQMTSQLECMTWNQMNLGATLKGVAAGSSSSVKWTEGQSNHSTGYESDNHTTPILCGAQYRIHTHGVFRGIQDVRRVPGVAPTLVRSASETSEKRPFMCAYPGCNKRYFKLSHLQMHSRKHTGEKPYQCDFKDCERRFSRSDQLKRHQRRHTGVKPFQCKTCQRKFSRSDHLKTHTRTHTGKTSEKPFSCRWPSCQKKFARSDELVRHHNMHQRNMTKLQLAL
WRKY60 full length assumed: WRKY60 full length assumed (Arabidopsis thaliana, UniProt Q9SK33)
Sequence of UniProt Q9SK33 (whole entry, looked up): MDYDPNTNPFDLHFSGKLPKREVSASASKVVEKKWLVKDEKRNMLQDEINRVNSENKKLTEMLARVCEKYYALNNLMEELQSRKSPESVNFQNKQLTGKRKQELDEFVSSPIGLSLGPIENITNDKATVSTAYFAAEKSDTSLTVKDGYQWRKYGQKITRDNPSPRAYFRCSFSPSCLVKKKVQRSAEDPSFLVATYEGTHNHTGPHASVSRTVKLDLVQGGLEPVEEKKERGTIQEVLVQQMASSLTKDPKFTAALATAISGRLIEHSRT
Sequence of UniProt P19838 (whole entry, looked up): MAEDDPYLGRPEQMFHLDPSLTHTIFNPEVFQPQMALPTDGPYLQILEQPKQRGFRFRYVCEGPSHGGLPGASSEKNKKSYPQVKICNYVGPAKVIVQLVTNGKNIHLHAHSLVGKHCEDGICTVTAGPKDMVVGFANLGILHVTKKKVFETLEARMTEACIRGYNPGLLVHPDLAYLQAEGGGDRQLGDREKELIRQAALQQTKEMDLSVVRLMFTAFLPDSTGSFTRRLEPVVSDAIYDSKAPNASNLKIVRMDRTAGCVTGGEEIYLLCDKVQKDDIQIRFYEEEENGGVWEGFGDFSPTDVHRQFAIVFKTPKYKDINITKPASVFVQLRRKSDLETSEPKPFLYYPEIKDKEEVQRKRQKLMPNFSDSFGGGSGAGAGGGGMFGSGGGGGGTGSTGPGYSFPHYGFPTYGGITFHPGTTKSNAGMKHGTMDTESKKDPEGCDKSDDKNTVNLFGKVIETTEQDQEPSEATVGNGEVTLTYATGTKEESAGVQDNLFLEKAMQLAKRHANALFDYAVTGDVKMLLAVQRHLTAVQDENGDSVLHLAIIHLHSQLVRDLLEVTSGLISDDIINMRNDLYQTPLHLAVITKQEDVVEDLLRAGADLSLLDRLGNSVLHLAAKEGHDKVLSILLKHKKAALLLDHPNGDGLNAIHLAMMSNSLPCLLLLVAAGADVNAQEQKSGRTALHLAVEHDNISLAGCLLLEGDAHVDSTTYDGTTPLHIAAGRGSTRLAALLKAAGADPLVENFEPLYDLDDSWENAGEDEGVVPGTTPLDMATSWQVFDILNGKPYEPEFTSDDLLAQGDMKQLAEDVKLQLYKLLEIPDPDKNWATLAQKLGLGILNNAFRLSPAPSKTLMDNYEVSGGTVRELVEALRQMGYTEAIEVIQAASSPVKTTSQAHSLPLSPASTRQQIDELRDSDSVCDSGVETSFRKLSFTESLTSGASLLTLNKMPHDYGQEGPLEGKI
Sequence of UniProt Q10M41 (whole entry, looked up): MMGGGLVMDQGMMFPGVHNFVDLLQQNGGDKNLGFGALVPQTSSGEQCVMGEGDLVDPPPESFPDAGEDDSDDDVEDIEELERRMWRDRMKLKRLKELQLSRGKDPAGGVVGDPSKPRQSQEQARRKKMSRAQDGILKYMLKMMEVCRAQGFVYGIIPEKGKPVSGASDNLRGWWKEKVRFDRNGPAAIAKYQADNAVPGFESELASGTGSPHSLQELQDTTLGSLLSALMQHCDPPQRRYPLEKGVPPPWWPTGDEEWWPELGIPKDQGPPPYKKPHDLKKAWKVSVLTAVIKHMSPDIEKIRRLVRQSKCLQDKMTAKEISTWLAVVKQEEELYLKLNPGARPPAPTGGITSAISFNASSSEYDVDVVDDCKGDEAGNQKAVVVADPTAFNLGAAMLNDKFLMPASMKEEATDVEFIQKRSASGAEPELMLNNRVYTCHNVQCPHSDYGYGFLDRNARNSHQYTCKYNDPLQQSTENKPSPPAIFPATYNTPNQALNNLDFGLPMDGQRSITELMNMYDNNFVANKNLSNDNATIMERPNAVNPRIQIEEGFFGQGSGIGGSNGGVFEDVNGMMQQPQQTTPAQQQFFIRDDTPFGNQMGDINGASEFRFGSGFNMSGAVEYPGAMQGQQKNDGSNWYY
Sequence of UniProt P13006 (whole entry, looked up): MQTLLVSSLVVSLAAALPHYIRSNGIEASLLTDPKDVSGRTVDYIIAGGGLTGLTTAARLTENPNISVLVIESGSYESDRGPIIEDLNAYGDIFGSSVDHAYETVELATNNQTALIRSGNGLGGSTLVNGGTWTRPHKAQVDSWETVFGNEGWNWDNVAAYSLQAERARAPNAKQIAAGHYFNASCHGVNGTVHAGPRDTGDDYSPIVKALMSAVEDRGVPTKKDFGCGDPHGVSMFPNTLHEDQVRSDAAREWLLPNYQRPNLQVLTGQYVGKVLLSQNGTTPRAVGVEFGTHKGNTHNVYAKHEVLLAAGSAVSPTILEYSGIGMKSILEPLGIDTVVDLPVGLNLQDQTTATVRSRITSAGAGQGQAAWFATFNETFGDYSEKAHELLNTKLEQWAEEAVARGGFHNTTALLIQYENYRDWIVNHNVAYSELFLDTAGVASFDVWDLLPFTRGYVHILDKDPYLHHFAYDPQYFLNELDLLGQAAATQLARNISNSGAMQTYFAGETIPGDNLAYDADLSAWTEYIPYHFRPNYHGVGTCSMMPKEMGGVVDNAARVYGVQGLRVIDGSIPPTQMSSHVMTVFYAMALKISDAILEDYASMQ
Sequence of UniProt P19821 (whole entry, unmodified, looked up): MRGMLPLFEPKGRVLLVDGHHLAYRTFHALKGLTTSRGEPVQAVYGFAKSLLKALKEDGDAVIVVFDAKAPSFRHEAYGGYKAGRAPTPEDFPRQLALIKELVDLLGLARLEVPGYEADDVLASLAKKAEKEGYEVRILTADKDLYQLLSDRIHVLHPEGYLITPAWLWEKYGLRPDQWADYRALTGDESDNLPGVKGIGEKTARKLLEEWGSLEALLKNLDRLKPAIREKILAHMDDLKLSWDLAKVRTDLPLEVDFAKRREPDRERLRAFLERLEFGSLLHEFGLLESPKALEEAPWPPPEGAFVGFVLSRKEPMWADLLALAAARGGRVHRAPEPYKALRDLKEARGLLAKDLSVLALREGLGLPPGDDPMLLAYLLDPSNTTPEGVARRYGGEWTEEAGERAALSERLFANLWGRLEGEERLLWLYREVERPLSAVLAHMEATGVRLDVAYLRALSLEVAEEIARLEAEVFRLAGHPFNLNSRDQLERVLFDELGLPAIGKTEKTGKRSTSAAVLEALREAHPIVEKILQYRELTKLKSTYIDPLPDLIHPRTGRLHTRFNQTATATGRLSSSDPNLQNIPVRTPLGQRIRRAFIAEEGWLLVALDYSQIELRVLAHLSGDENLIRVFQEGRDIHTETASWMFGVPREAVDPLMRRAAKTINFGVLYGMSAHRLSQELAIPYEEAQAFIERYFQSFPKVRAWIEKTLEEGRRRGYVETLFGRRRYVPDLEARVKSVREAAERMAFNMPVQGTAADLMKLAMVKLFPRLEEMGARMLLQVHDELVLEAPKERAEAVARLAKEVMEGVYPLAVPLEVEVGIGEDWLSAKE
Sequence of UniProt O95905 (whole entry, looked up): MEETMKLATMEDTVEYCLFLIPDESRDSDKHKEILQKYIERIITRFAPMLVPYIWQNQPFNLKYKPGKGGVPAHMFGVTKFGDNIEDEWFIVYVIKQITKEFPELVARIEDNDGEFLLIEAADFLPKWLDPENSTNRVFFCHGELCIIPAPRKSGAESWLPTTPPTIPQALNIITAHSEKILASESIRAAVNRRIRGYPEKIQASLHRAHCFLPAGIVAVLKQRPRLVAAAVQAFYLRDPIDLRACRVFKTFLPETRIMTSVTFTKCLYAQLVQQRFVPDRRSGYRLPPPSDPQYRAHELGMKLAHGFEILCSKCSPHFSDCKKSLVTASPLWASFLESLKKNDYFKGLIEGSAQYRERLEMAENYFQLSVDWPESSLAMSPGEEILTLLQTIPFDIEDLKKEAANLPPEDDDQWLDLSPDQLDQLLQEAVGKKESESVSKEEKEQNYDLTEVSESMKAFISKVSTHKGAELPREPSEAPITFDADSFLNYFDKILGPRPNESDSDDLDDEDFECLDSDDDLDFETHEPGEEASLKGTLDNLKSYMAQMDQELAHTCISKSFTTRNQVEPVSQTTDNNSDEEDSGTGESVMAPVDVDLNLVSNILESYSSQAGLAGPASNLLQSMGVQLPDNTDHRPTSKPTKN
Sequence of UniProt Q93VB5 (whole entry, looked up): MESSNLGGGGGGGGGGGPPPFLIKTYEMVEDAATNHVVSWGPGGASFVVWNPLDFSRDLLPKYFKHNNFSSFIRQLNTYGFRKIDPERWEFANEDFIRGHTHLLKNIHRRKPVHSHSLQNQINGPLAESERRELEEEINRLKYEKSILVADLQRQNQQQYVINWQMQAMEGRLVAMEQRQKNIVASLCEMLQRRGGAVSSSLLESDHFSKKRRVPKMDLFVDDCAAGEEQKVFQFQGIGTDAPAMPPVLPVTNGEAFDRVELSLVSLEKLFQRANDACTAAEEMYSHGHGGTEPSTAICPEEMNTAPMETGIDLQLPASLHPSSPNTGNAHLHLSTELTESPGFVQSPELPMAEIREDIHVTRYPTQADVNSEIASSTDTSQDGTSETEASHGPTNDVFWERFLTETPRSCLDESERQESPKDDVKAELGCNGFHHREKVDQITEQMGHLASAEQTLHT

Strand	target	test	test system	setting	quantity	result
TCCAAGCGGGATGCGGAGCCGCCGCCGCCGCCG (dsDNA; blunt)	WT1	EMSA	double-stranded DNA, one strand shown		binding	no binding
TCTCAAGATCAAAACATTGTCGAATCACGGATCAAAATA (dsDNA)	GATA15 full length assumed (Oryza sativa, UniProt Q6L5E5)	EMSA	double-stranded DNA, one strand shown		binding	binds
DNA 1 ACGCTCCCTCGAGGAATTCGGATCCGAATTCCTCGAG / DNA 2 ACGCTCCCTCGAGGAATTCGGATCCGAATTCCTCGAG (dsDNA; 5' 7-nt overhangs, palindromic)	sduA 1-380 (Bacillus cereus, UniProt B7HFR2)	fluorescence polarization	double-stranded DNA	together with: Mg2+ 5 mM	binding	no binding
GAUAC (ssRNA)	SART3 697-786 (Homo sapiens, UniProt Q15020)	ITC	RNA		binding	no binding
TGTTTT (ssDNA)	CP29A 255-334 (Arabidopsis thaliana, UniProt Q43349)	NMR titration	single-stranded DNA		binding	binds
AAACTTCCGTGGAGAACC (dsDNA)	PDR1 1-207 (Saccharomyces cerevisiae, UniProt P12383)	competition	double-stranded DNA, one strand shown		binding	binds
TATGATTATTTTAAAAATACGTATTAATT (dsDNA)	Uncharacterized protein 1-360 (Prunus persica, UniProt M5W9R3)	EMSA	double-stranded DNA, one strand shown		binding	binds
TGGTATTTTGACGTGTGGGCATCACAGGTGCACGTGAAAACCCATTTT (dsDNA)	NAC067 1-276 (Oryza sativa, UniProt Q7EZT1)	EMSA	double-stranded DNA, one strand shown		binding	binds
UUAUUUUUAAGGAUUUAUUUAUUUA (ssRNA)	APOBEC3G 1-384 (Homo sapiens, UniProt Q9HC16)	UV cross-linking, SDS-PAGE, MS	RNA		binding	binds
CTGTTTTATTCACTTGATCTTCTTAATCTTTTAAATTGCCTATCTTTTGCTATGTTTTTGTTACAATTTAAATTGACAAGTACTTAGAAAAACAAACAAAAATGATATCTCTGTTCCATCTTAGATTATTCGTTTCTTATTTCTCTTAATATATATTTTTGAACACGCTTATTTCTCTTATATATGTTGCAATATTC (dsDNA)	WRKY60 full length assumed	EMSA	double-stranded DNA, one strand shown		binding	binds
TTTTTTTTTTTTTTTTTTTTTTTTTTTTTTTTTTTTTTTTTTTTTTTTTTTTTTTTTTTTTTTTT (ssDNA)	yoaA/holC 1-636; 1-147 R128A (Escherichia coli)	EMSA	single-stranded DNA	together with: ATPγS	binding	binds
ACAGGGTCCTGGGGACAGGGTCCTGGGG (ssDNA (Homo sapiens))	IGF2 fragment (Homo sapiens)	affinity MALDI MS	single-stranded DNA	100 nM	binding	no binding
TGAACAACTGTCCACTAG (dsDNA)	Auxin response factor 1-610 (Capsicum annuum, UniProt A0A1U8F1G4)	MST	double-stranded DNA, one strand shown		binding	binds
AAAAGGTGGTGGGGGGGGTTGGTAGGGTGTCTTCT (structured DNA; 5' thiol, 3' methylene blue)	INS 25-54;90-110 (Homo sapiens)	square wave voltammetry	folded DNA	20 µM, signal suppression	binding	binds
GCAGCUCGGGGAUCAUGGCCCACUGAACCCCCAAGCGC (structured RNA)	NFKB1 41-365 (Homo sapiens, UniProt P19838)	EMSA	folded RNA		binding	binds
TCTTGTATTTTAGTCATGCATGACAATTTTTTC (dsDNA (Drosophila melanogaster); blunt)	sv (Drosophila melanogaster, UniProt Q59DN9)	EMSA	double-stranded DNA, one strand shown		binding	binds
UUUUAGCUGCUUGCUUAGAAGAAAAGAAAAGAAAAUUGCAGAGAAAAAGCUAUUUAUUGUUUCUGUCCUUCGCUUUAAAACAUAGAGAUAUUUUGUCCUUUUUAUCAUUGCUUAUUAUAA (ssRNA)	RIM4 1-713 (Saccharomyces cerevisiae, UniProt P38741)	EMSA	RNA		binding	binds
DNA GCGTAGCCACGGCTGTCGAC / RNA GUCGACAGCCGUGGCUACGC (DNA:RNA)	RNase HIII tandem 1-81 domains L52M (Geobacillus stearothermophilus, UniProt Q6L6Q4)	fluorescence anisotropy	DNA-RNA hybrid		binding	binds
DNA 1 ACACTACAATGTTGCAAT / DNA 2 GTATTGCAACATTGTAGT (dsDNA (Drosophila melanogaster); 16 bp, 5' 2 nt overhangs)	dsx fragment (Drosophila melanogaster)	EMSA	double-stranded DNA		binding	binds
DNA 1 GAGCTCGGTACCCGTGGATCCTCTAG / DNA 2 TCTAGAGGATCCACGGGTACCGAGCT (dsDNA; 5' 1 nt overhangs)	protein full length assumed (Bacillus pumilus, UniProt A3FMN7)	EMSA	double-stranded DNA		binding	binds
ACCAAGCGGGATGTGGAGCCGCCGCCGCCGCCG (dsDNA; blunt)	WT1	EMSA	double-stranded DNA, one strand shown		binding	no binding
TAAATTGTAAGCGTTAATATTTTGTTAAAATTCGCGTTAAATTTTTGTTAAATCAGCTCATTTTTTAACCAATAGGCCGAAATCGGCAAAATCCCTTATA (ssDNA)	protein full length assumed (Mycosarcoma maydis, UniProt Q8NJ74)	EMSA	single-stranded DNA		binding	binds
TTACTCAACCGTAACCGATTTTGCCAGGTTACGCGG (dsDNA)	TnsD/uL29/ACP 1-508; 1-63; 1-78 (Escherichia coli)	EMSA	double-stranded DNA, one strand shown		binding	binds
TTTGAGAAAGAATCAAGAAAAGTTTCGGACTACTCTCTTAGATAAA (dsDNA)	ORC1-type DNA replication protein full length assumed (Saccharolobus islandicus, UniProt F0NF18)	EMSA	double-stranded DNA, one strand shown		binding	binds

Strand	target	test	test system	setting	quantity	result
AATTGTACATGCATATAAAGAACCCAAACATGGTAACA (dsDNA)	TaB3 1-272 (Triticum aestivum, UniProt A0A3B6ITW4)	EMSA	double-stranded DNA, one strand shown		binding	binds
GTTGAATGTCACCTAGCTAGCACGTGACCCGCCTTTTCCCCGCACG (dsDNA)	BZR1 1-298 (Oryza sativa, UniProt Q7XI96)	EMSA	double-stranded DNA, one strand shown		binding	binds
TTTAGGGTTTAGGGTTTAGGGTTTAGGGTTTAGGGTTTAGGG (ssDNA (Arabidopsis thaliana); single-stranded)	POT1A 1-150 (Arabidopsis thaliana, UniProt Q56Y52)	EMSA	single-stranded DNA	0.25 µM	binding	binds
AAAAATGTTTATATATGAAGCATAAA (dsDNA)	NAC083 (Arabidopsis thaliana, UniProt Q9FY93)	EMSA	double-stranded DNA, one strand shown		binding	binds
CTGAAGTTTGGTCAAAATAATACGATGAATTTAATATATAAGAGACAAAATTGTTATTGTCGTTTAGGTGGTATCCATATTTCAATATAGTTTGTGTGAATACAGATATAAAAATGGTTATTGTTGTGTATATGATGCAGTTG (dsDNA)	WRKY60 full length assumed	EMSA	double-stranded DNA, one strand shown		binding	binds
DNA 1 GCTTGACCAATGCGGTCGC / DNA 2 GCGACCGCATTGGTCAAG (dsDNA; 5' 1-nt overhang)	BCL11A 730-835 (Homo sapiens, UniProt Q9H165)	X-ray crystallography	double-stranded DNA	together with: Zn2+	binding	binds
ATCTGGGAATTCCCAGAT (dsDNA; blunt/self-complementary palindrome)	NFKB1 41-249 (Homo sapiens, UniProt P19838)	NMR	double-stranded DNA, one strand shown		binding	binds
AGCGUGCCGUGCAACAACAUUACAAUUUACAAUCCACCAUGG (ssRNA)	ECD 439-644 (Homo sapiens, UniProt O95905)	EMSA	RNA		binding	no binding
AUUUGAUUU (ssRNA)	U2AF2 148-342 (Homo sapiens, UniProt P26368)	sequencing of bound RNA	RNA	motif only	Kd	8.27 µM
TTTTTTTTTTCGTATGGCACGGGGTTGGTGTTGGGTTGG (ssDNA; 5'-phosphate; G-quadruplex)	gox (Aspergillus niger, UniProt P13006)	electrolyte-gated transistor sensor	single-stranded DNA		binding	no binding
GATTTTATTTCTTTTATGTTTATGTGTCATCTTGAAACTACCACCGAATGGC (dsDNA)	O2 full length assumed (Zea mays, UniProt P12959)	competition	double-stranded DNA, one strand shown	unlabeled DNA competitor	binding	binds
DNA 1 ATACCAGCTTATTCAATT / DNA 2 ATTGCTCCTCAGCAATTGAATAAGCT (dsDNA; 13 bp duplex, 5' overhangs, 5'-NH2)	MUC1 24-1097 (Homo sapiens, UniProt P15941)	magnetic bead strand displacement	double-stranded DNA		binding	no binding
TCGGTACCCGTGGATC (dsDNA)	protein full length assumed (Bacillus pumilus, UniProt A3FMN7)	EMSA	double-stranded DNA, one strand shown		binding	binds
ATGTCACTGGAATATTCGCGCACCGT (dsDNA)	HSFA4D 1-459 (Oryza sativa, UniProt Q93VB5)	EMSA	double-stranded DNA, one strand shown		binding	binds
ACAAGAACAUCAAAGUCGAAGAACCUUCCG (ssRNA)	IGF2BP2 1-599 (Homo sapiens, UniProt Q9Y6M1)	pull-down	RNA		binding	binds
DNA 1 GTCCCTAGCGG / DNA 2 CGGGAACCGCCGCTAGGGAC (dsDNA; 11 bp duplex, 5' overhang, recessed primer)	polA 293-832 K505G/E507G (Thermus aquaticus, UniProt P19821)	fluorescence polarization	double-stranded DNA		binding	binds
GCAGCCCTGGTTAAAAACAAGGTTTATAAATATTGGTTTAAAAGCAGGTTAAAAGACAGGTTAGCGGTGG (ssDNA; 5-Br-dU at T24)	trfA 98-382 G254D/S267L (Escherichia coli, UniProt P07676)	EMSA	single-stranded DNA		binding	binds
CCAATGTGTAACAAGTAACTTATGACAACACAAATTTCTTCTTTGGTAGAAAACAAACGGGTAAGTAAAAAGAAAAGAAAAAAAGAAGTGAGTGAGAAGAGAGTGTAAGTATAAATAAAAGAAGCACCGCCCTAATCGACCATTCACAACGATGACATTCAAACACTCTTCAG (dsDNA)	WRKY60 full length assumed	EMSA	double-stranded DNA, one strand shown		binding	binds
TATAGCTAGCTAGGATGATGTATAATGGGCTAATTGAGCT (dsDNA)	EIL1A 1-350 (Oryza sativa, UniProt Q10M41)	EMSA	double-stranded DNA, one strand shown		binding	no binding
TAGGCGTGGGCCATGTGACAGAATGAAAGAACTCA (dsDNA)	WRKY70 1-294 (Arabidopsis thaliana, UniProt Q9LY00)	EMSA	double-stranded DNA, one strand shown		binding	binds
CAGCTTTTCAATGGCTTTCCAATACGACCCGCAGGGGAAAAACCGTTAAACCGTCCACATTAACCGCTGACCCAAAAAAGAACGCTTTTTACTAAAAGATTTCTATTCGGTTCTCAAATGTTGCTTGAATGGGGCAACAATAAAACGTCGTGGCATTTAACCTAGTTTGGAAATTCAGACCCTATTGAATTTCGC (dsDNA)	ihfA/ihfB 1-98; 1-95 (Aggregatibacter actinomycetemcomitans)	EMSA	double-stranded DNA, one strand shown		binding	no binding
ACGAAATATTTATTTTATTTATTTTTTGACAACGAATTTAATTCGGTCAC (dsDNA)	WRKY23 (Oryza sativa, UniProt Q7E0X1)	EMSA	double-stranded DNA, one strand shown		binding	binds
GCAGTGAAAAGGGGGTGTGTCAGGATGC (dsDNA)	KLF10 111-210 (Homo sapiens, UniProt Q13118)	EMSA	double-stranded DNA, one strand shown		binding	no binding
GGAACCAGTATTACATAATCCGTACAAGTATGAGCTA (dsDNA; blunt)	him-8 full length assumed (Caenorhabditis elegans, UniProt O18068)	streptavidin pull-down, western blot	double-stranded DNA, one strand shown	1 µM	binding	no binding

Repeated from above:
Strand	target	test	test system	setting	quantity	result
TCTCAAGATCAAAACATTGTCGAATCACGGATCAAAATA (dsDNA)	GATA15 full length assumed (Oryza sativa, UniProt Q6L5E5)	EMSA	double-stranded DNA, one strand shown		binding	binds
DNA 1 GAGCTCGGTACCCGTGGATCCTCTAG / DNA 2 TCTAGAGGATCCACGGGTACCGAGCT (dsDNA; 5' 1 nt overhangs)	protein full length assumed (Bacillus pumilus, UniProt A3FMN7)	EMSA	double-stranded DNA		binding	binds
TGGTATTTTGACGTGTGGGCATCACAGGTGCACGTGAAAACCCATTTT (dsDNA)	NAC067 1-276 (Oryza sativa, UniProt Q7EZT1)	EMSA	double-stranded DNA, one strand shown		binding	binds
ACCAAGCGGGATGTGGAGCCGCCGCCGCCGCCG (dsDNA; blunt)	WT1	EMSA	double-stranded DNA, one strand shown		binding	no binding
TAGGCGTGGGCCATGTGACAGAATGAAAGAACTCA (dsDNA)	WRKY70 1-294 (Arabidopsis thaliana, UniProt Q9LY00)	EMSA	double-stranded DNA, one strand shown		binding	binds
